# Measurements from different studies.
# Every numbered part comes from another study and shows a few of its results, in no order. Substitutions count along the parent as printed.

# Sample 1
# Target: RNA binding protein fox-1 homolog 2, RRM domain, GST-SBP tag (RBFOX2, Homo sapiens, UniProt O43251-10, residues 100-194)
# Technique: RNA Bind-n-Seq
# Molecule type: RNA
# Medium: in vitro
# Concentration: 365 nM
# Notes: natural RNA segment, single round, ends assumed
# Relative to: no-protein control
# Direction: higher = stronger binding
# All sequences stand within: GGGAGUUCUACAGUCCGACGAUC … UGGAAUUCUCGGGUGCCAA
# Target sequence (chain): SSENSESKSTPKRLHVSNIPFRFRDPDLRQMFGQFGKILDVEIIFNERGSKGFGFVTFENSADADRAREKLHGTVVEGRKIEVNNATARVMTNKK
Oligonucleotide,RBNS enrichment (R)
UCCUAAAAGGACAGAUCACUUCAGAAGAGUGAAUAACUGAUUUGCACAGCUGAAUCAGGAGACACAAAGAUGAGACUGUGUUUGGUUACAUUUUCCAAAGUUUCAUUGCA,0.933
AAUUCUAUAAGUCCAAGGUGUGCUUUAUCCUCAACAAUGACAUGAGUGAGAUGGAGCUGGUCUUUGCAGAAGAGAAAUACAACAAAUCAGGUCAACUGGAUAAGAUUGUA,0.675
CCUGCUGUGUGUCGGCCUUAUUAUUGUGACCAUCCUGCUGCUCCAGACUGCCUUCCCGGGAUUUCUCUAACCUCUAGAGCGAUGGGAAUCAGCCUUGGACAGUGCCGCCU,0.228
GUAGUCAUGCACUUUGUAUUAAUAUAUUAGAAAUCUACAGAUCUGUUUUGUACUUUUUAUACUGUUGGAUACUUAUAAUCAAAACUUUACUCUAGGGUAUUGAAUAAAUU,0.574
UAAUCAUUUUGGAUUUUUUUCUUUGAAUUAUUGGCAGGGAAUAUACUUAUGUAUGGAAGAUUACUGCUCUGAGUGAAAUAAAAGUUAUUAGUGCGAGGCAAACAUAACUC,0.607
AGAUUAAACCAAUUAUAACUUAUUAGCAGUCGCGAGCACAUGUUCAUAUAGUCAAUGUAAAAAUACACUAAUGAGUAUUUGGUAAAUCCCAGUAGGCUUUUACCAUUAGC,0.483
CAGGACUAUCUCUUUAUGGAAGGAGACAUAUGGGAACAUCCACCACUACCCUCUCCUACCAUCUUCCUGGGAAUGUGGCCUACCACUACCAGAGCUCCUGCCUACCAAGA,0.446
CUGUCUCCUGCCUUAGCAGGCCUAUCAAUUUCUUGUCAAUCUCUUUUUUUCCUUGCUCACAUUAAAAGGAAGCAUGGAGUUCUAAUGCUCCCAUAAACUAUGUAUUUUGG,0.736
GAUAACAAGUGGGAAUUUACUCACUGACUUCUCAUUUAUCAUAAAAGCUGCAGCACCUUUAUGUACAGAACAAUGUCACAGUGUGUGUGUGUGUGUGUGUGUGAGCGAGC,0.42
AGGAUUAAUUAACAAGUUAAUUUUAAGGUGGCCACUGUACACUGCUCUAAAGUCAUAUCCCCUCCCCGCCCCCAGUCAUCAUGGAAGUAACCACUACAAAGAGAUAACAC,0.277
GAGAGUGUCUGGGGGAGCCUUUUGGUGUUUGCCACCCCACCCCCCAGGAGAUGGUUAAUAAGAGUUGUUACUUCGAGGUGCCUACCUCCACCUUCAAAGUAACUCUUAGA,0.442
GCGUGCAUGUAUCUCUUCACCAUGUCUUCUCUCACCUUCACUAAGGAGUCACCAGAUCAUCUGGCUCAGAUGCUCAGGAUGUAUUCCUUUGGCUUACCCCGUGCUCCUGG,7.11

# Sample 2
# Target: RING finger protein unkempt homolog, zinc fingers 1-6, GST-SBP tag (UNK, Homo sapiens, UniProt Q9C0B0, residues 30-357)
# Technique: RNA Bind-n-Seq
# Molecule type: RNA
# Medium: in vitro
# Concentration: not given
# Notes: RNA with constant flanks, ends assumed
# Relative to: input RNA pool
# Direction: higher = stronger binding
# All sequences stand within: GGGAGUUCUACAGUCCGACGAUC … CAACAGAGGAUUGAGCAUCA
# Target sequence (chain): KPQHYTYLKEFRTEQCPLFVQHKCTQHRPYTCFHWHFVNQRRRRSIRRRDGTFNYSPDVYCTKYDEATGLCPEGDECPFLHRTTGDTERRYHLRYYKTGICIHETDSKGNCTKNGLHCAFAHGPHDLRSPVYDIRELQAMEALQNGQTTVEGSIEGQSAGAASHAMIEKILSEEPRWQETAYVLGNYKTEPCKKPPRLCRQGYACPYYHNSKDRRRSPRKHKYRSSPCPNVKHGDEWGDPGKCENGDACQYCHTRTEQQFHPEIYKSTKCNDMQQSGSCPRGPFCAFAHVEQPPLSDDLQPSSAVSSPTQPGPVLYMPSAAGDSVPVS
Oligonucleotide,bound/input enrichment [ratio]
CUGGACCUCAACUGUGACGGGCAGCUAGAUUUCCAAGAGUUUCUCAACCUCAUUGGUGGCUCCGCUACCGCGUGCCAUGAUUCUUUCAUCCAAACUUCCCAGAAGCGAAUCUAAUCCUCU,0.334
GUCACAAGUAGGUUGGUAGAAAACAACCUGAUUCUGACCCUUUCUUUUUUUUUUUCCUGUUUCCGUCUCAGUAGAUCUUUUCAAGCACUGUCCUUACAGCUCAUGAAUGUUUAGGUCUUU,0.633
AAGACGAAGCUGGACACUCUAGCCACUGGUCAUCUCUUCCAGGAAGUGAGGUGCAUGAAACCCGUGCAGCACCCCAACAUUGUGCGUCUCUAUGAAGUCAUAGACACCCAGACCAAACUU,0.117
GCAAUGGCUGCGGCUGCAGCAGCUUCUCACCUGAACCUGGAUGCCCUCCGGGAAGUGCCCGAAUGUCCCAUCUGCAUGGAGUCCUUCACUGAAGAGCAGCUGCGACCCAAGCUGCUGCAC,0.08
AGCUCACAGUGCCCCUAGUCUGGGUGCCCGCUGUCCCCGACAAAUGUAACCACCUCCCUGCCCCGAAUACACACACGUCCUCCGGUGCAUGCACAACCACCCAGCAUCUUUCUUUGUGAU,0.182
AAUCAGUCAAAAACGACACCUUUUAAAGAUUGCAAAGUAUUGAAACAAAGACCAAGAUUUGCCGCUCUGAAGAAACAACCAUCCUAUAUUGGAGGACAUGAGGGCUUAGAACUGAGAGAC,0.646
AUUCUGCUGGGCAAUGGCACCCUGCCCGCCACCAUCCUCACCAGUCUCUUCACCGACAGCUCCGUCAAAGAAGGCAUUGCGGCCUCAUUUGCUGUCAAGCUUUUCAAAGCAUGGAUGGCA,0.0978
AUUUAAAAUGUAGUUAGUUAUAUUUAAUGACCUCAUUCCUAAGUUCCUUUUUCGUUAAUGCCGCUUUCAUUUCUGUUAUUGCUGUUUGAAUAAUAUGAUUAAAUAGAAGGUUUGUGCCAG,10.1
GACCGCCUGGUAGCCUUUCCUACUCGAGUAGCAGGUGGAAUUGGAAUCACCUGUUGGAUUUCCGUCUGUAACAAAGUUGUGGCUAUCGUUCUCCACCCUUUCAGCUGAGGGGAAGGCCAG,0.182

# Sample 3
# Target: CCNA2, cyclin fold, Cln2 fusion (human)
# Technique: yeast growth competition, sequencing
# Medium: yeast
# Notes: strong parent motif
# Relative to: not given
# Direction: higher = stronger binding
# Starting sequence: RBL2 docking peptide (human); STTRRRLFVENDS; partner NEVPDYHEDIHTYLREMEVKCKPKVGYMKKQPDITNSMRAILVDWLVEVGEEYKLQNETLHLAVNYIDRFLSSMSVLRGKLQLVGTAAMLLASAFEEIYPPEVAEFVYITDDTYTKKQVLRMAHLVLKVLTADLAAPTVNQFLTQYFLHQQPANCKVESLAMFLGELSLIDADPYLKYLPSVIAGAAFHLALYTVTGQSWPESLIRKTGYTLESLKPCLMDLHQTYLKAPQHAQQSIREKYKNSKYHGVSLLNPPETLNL
Variant,normalised enrichment score
STTRRRWFVENDS [L7W],0.396
STTRRRLFVSNDS [E10S],5.63
VTTRRRLFVENDS [S1V],5.17
STTERRLFVENDS [R4E],-0.944
STTMRRLFVENDS [R4M],0.904
STTRCRLFVENDS [R5C],1.68
STTRRRLFVENSS [D12S],5.51
STTRRRLFVECDS [N11C],6.17
ATTRRRLFVENDS [S1A],5.01
STTRRRNFVENDS [L7N],0.124
STTRRRLFVENDT [S13T],5.5
STTRRRLFVYNDS [E10Y],4.02
STTSRRLFVENDS [R4S],1.46
STCRRRLFVENDS [T3C],6.78
STTRRRLPVENDS [F8P],1.06
STTRRRPFVENDS [L7P],-0.253

# Sample 4
# Target: DDIT3, bZIP domain (human)
# Technique: DHFR protein complementation
# Medium: yeast
# Notes: single substitutions, most at no-binding floor
# Relative to: wild-type JUN-FOS pair
# Direction: higher = stronger binding
# Starting sequence: JUN, bZIP domain (human); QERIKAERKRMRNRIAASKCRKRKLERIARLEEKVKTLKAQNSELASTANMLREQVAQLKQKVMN; partner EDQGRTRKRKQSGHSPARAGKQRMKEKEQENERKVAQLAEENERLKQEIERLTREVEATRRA
Variant,binding fitness
L52R,-1.16 natural log
E54C,-0.269 natural log
I28P,-0.395 natural log
V56C,-0.133 natural log
K36I,-0.0666 natural log
A57T,0.0344 natural log
Q58R,0.0167 natural log
L38P,-1.19 natural log
V56G,-0.992 natural log
K36V,-0.0154 natural log
A49Q,-0.727 natural log
L31I,-0.254 natural log

# Sample 5
# Target: Prothrombin, mature alpha-thrombin (F2, Homo sapiens, UniProt P00734)
# Technique: aptamer microarray, sandwich
# Molecule type: DNA with 2'F-ANA
# Medium: in vitro
# Concentration: 200 nM
# Notes: whole 15-mer aptamer, many near background
# With: Cy3 exosite-II aptamer, 400 nM
# Direction: higher = stronger binding
# Oligonucleotide: GGTTGGTGTGGTTGG
Modification,mean fluorescence intensity
2'F-ANA at 1 4 6 7 9 11 13,70.5 a.u.
2'F-ANA at 1 3 4 7 8 9 11 15,188 a.u.
2'F-ANA at 9 11 12 13,653 a.u.
2'F-ANA at 1 4 5 6 11 15,50.1 a.u.
2'F-ANA at 1 5 6 7 8 9 10 13 15,47.6 a.u.
2'F-ANA at 1 2 3 6 7 13 14,136 a.u.
2'F-ANA at 2 4 5 7 9 10 11 12 13 14 15,48.9 a.u.
2'F-ANA at 2 3 5 7 8 9 10 13 15,55.3 a.u.
2'F-ANA at 1 2 5 6 7 8 9 10 11 13 15,50.8 a.u.
2'F-ANA at 2 6 14,136 a.u.
2'F-ANA at 3 5 10 13 14 15,56.6 a.u.
2'F-ANA at 1 4 5 7 9 10 12 13 14,45.6 a.u.
2'F-ANA at 1 2 4 7 12 13 14 15,62.4 a.u.
2'F-ANA at 1 2 3 4 5 6 8 9 14,46.5 a.u.
2'F-ANA at 1 2 3 5 8 10 11 13 14 15,48.1 a.u.
2'F-ANA at 1 3 5 8 9 10 12,65.6 a.u.

# Repeated from above (sample 1):
Oligonucleotide,RBNS enrichment (R)
GUAGUCAUGCACUUUGUAUUAAUAUAUUAGAAAUCUACAGAUCUGUUUUGUACUUUUUAUACUGUUGGAUACUUAUAAUCAAAACUUUACUCUAGGGUAUUGAAUAAAUU,0.574
UAAUCAUUUUGGAUUUUUUUCUUUGAAUUAUUGGCAGGGAAUAUACUUAUGUAUGGAAGAUUACUGCUCUGAGUGAAAUAAAAGUUAUUAGUGCGAGGCAAACAUAACUC,0.607
AGAUUAAACCAAUUAUAACUUAUUAGCAGUCGCGAGCACAUGUUCAUAUAGUCAAUGUAAAAAUACACUAAUGAGUAUUUGGUAAAUCCCAGUAGGCUUUUACCAUUAGC,0.483
CAGGACUAUCUCUUUAUGGAAGGAGACAUAUGGGAACAUCCACCACUACCCUCUCCUACCAUCUUCCUGGGAAUGUGGCCUACCACUACCAGAGCUCCUGCCUACCAAGA,0.446
CUGUCUCCUGCCUUAGCAGGCCUAUCAAUUUCUUGUCAAUCUCUUUUUUUCCUUGCUCACAUUAAAAGGAAGCAUGGAGUUCUAAUGCUCCCAUAAACUAUGUAUUUUGG,0.736
GAUAACAAGUGGGAAUUUACUCACUGACUUCUCAUUUAUCAUAAAAGCUGCAGCACCUUUAUGUACAGAACAAUGUCACAGUGUGUGUGUGUGUGUGUGUGUGAGCGAGC,0.42
AGGAUUAAUUAACAAGUUAAUUUUAAGGUGGCCACUGUACACUGCUCUAAAGUCAUAUCCCCUCCCCGCCCCCAGUCAUCAUGGAAGUAACCACUACAAAGAGAUAACAC,0.277
GAGAGUGUCUGGGGGAGCCUUUUGGUGUUUGCCACCCCACCCCCCAGGAGAUGGUUAAUAAGAGUUGUUACUUCGAGGUGCCUACCUCCACCUUCAAAGUAACUCUUAGA,0.442
GCGUGCAUGUAUCUCUUCACCAUGUCUUCUCUCACCUUCACUAAGGAGUCACCAGAUCAUCUGGCUCAGAUGCUCAGGAUGUAUUCCUUUGGCUUACCCCGUGCUCCUGG,7.11
